Measured values gathered from unrelated publications.
A part holds a random share of what one study measured.
Chain of UniProt Q9H0K1 (whole entry, looked up): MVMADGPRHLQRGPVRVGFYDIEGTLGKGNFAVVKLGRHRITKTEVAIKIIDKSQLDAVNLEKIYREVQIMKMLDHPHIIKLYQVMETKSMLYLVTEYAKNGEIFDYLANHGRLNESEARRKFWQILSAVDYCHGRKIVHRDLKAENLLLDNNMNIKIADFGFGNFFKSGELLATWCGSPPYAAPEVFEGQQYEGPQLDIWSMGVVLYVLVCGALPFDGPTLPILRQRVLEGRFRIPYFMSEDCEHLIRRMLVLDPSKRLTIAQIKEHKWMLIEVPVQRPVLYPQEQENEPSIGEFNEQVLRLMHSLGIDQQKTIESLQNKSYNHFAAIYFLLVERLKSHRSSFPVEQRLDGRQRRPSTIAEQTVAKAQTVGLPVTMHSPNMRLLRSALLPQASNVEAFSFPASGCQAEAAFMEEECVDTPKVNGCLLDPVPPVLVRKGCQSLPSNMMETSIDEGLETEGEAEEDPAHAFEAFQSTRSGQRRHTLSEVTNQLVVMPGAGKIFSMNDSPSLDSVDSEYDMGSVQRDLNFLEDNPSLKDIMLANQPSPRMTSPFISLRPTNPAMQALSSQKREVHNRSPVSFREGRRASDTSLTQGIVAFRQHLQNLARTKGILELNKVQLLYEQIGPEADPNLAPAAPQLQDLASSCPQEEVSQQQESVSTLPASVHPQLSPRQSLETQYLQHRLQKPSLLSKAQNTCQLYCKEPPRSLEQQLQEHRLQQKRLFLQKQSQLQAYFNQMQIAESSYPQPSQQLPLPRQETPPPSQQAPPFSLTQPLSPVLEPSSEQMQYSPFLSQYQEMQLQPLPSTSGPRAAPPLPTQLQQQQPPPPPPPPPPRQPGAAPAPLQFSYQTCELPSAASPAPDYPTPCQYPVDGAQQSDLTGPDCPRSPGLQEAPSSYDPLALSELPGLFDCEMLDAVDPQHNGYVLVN
Chain of UniProt O75676 (whole entry, looked up): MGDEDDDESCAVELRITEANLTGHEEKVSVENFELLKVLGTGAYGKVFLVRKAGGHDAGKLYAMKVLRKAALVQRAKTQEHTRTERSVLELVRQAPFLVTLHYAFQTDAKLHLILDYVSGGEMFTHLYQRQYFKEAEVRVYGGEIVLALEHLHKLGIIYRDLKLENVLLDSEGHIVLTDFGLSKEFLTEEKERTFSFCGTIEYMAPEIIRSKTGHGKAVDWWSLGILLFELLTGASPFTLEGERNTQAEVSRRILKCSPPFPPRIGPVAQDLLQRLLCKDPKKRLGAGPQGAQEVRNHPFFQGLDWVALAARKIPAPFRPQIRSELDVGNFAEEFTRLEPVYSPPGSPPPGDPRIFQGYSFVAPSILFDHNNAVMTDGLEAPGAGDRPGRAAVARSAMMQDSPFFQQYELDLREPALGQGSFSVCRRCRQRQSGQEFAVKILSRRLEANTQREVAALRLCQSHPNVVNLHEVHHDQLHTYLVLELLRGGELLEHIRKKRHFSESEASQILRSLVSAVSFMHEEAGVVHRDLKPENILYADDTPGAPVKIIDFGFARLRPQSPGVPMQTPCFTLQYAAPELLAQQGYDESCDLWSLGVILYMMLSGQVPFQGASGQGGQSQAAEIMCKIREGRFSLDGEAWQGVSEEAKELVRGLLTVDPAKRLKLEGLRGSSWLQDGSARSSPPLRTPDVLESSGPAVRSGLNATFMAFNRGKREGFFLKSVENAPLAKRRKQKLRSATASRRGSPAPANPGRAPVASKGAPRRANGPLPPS
Chain of UniProt P42336 (whole entry, unmodified, looked up): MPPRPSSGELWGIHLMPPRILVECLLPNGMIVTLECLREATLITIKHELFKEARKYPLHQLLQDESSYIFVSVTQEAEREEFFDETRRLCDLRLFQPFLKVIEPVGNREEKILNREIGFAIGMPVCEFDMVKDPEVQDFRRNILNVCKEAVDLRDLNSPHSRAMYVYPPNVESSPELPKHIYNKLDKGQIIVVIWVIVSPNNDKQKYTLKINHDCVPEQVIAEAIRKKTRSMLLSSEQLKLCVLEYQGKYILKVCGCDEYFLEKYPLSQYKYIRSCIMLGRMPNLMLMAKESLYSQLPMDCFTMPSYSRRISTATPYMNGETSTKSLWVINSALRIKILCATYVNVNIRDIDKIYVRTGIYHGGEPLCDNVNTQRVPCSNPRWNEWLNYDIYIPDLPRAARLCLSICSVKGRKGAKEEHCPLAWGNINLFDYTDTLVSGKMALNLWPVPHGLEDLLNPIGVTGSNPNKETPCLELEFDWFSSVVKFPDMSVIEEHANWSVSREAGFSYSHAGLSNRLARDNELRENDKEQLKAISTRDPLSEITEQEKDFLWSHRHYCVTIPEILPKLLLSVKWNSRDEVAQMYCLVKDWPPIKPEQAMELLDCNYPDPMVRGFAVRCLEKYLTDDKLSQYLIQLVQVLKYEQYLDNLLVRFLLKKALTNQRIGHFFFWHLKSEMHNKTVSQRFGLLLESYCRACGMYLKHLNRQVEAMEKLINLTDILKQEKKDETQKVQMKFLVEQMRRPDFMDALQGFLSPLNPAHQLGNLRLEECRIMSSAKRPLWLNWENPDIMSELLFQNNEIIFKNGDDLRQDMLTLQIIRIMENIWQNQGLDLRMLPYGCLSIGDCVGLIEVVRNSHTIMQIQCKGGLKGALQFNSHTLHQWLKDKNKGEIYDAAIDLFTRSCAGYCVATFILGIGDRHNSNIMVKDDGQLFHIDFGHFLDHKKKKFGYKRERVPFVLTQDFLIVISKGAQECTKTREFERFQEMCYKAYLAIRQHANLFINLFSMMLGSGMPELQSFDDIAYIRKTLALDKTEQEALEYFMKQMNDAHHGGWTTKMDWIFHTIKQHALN
Chain of UniProt Q8N752 (whole entry, looked up): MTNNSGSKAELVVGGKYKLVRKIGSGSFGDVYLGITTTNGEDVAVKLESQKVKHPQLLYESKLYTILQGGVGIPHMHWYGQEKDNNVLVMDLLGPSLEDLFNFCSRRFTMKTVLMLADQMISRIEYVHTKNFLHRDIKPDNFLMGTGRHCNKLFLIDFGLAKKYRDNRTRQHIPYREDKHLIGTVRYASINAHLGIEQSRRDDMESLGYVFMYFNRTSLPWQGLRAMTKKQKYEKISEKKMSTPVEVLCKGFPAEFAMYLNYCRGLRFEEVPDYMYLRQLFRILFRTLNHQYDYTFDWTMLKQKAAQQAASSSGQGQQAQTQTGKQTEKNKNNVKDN
Chain of UniProt Q86YV6 (whole entry, looked up): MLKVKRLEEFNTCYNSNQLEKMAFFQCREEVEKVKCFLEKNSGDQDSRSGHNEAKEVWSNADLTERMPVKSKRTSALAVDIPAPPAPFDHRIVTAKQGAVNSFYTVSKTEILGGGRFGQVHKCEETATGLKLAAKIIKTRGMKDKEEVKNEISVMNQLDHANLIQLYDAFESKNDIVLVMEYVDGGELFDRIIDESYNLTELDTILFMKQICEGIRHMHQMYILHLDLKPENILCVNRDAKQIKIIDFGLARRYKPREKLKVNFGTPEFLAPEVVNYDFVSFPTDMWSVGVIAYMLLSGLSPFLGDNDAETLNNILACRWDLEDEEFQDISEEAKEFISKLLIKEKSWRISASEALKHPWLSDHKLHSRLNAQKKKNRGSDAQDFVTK
Chain of UniProt Q9HBH9 (whole entry, looked up): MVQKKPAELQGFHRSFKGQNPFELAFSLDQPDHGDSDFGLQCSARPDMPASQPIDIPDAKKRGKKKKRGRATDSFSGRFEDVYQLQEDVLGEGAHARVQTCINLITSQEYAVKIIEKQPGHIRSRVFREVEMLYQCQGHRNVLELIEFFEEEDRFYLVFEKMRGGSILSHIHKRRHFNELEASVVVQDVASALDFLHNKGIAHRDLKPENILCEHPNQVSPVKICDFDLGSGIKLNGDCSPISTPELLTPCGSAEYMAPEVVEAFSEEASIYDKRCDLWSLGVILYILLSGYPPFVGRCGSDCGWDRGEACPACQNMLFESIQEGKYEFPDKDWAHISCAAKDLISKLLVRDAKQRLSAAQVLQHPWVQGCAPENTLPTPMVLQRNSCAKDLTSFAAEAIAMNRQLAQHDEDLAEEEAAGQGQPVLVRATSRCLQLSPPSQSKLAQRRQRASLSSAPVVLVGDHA
Chain of UniProt O00238 (whole entry, looked up): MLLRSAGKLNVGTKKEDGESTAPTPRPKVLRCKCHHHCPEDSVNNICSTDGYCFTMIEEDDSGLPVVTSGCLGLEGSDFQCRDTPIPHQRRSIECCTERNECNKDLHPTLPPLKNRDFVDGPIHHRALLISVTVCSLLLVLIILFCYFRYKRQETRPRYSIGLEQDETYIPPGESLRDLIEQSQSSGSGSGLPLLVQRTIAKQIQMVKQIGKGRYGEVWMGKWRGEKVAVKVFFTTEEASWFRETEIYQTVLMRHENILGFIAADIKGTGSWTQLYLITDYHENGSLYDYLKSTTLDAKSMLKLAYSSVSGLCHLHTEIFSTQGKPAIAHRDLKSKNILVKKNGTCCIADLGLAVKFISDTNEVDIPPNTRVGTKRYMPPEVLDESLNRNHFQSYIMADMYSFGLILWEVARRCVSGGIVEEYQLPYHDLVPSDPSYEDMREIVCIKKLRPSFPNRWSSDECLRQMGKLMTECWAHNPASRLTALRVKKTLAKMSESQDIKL

Sample 1
Target: Serine/threonine-protein kinase Sgk3 (SGK3, Homo sapiens, UniProt Q96BR1)
Chain of UniProt Q96BR1 (whole entry, looked up): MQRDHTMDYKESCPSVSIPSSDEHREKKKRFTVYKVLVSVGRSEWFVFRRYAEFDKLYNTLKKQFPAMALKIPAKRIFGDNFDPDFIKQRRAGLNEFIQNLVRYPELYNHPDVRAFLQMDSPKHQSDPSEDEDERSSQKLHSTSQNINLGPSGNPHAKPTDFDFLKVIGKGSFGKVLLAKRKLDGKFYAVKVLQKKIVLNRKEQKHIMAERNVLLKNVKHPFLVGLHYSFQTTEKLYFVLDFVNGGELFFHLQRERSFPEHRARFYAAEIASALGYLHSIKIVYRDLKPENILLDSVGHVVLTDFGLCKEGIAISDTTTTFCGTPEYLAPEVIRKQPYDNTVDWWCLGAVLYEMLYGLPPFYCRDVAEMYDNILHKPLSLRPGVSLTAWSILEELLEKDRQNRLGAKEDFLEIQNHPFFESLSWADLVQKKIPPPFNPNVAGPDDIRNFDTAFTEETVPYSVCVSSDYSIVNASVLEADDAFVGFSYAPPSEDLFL
Effect on: enzyme activity
Mode: inhibitor
Concentration: 0.5 µM
Relative to: control
SMILES	remaining activity [%]
C#Cc1cccc(Nc2ncnc3cc(OCCOC)c(OCCOC)cc23)c1	100
O=c1c2ccccc2[nH]c(=S)n1CCN1CCC(=C(c2ccc(F)cc2)c2ccc(F)cc2)CC1	114
O=C(Nc1cccc(Nc2cc(Nc3cccc(C(F)(F)F)c3)ncn2)c1)C1CC1	106
Nc1ccc2ncnc(NCCc3ccc(Oc4ccccc4)cc3)c2c1	106
COc1cc2ncnc(Nc3ccc(F)c(Cl)c3)c2cc1OCCCN1CCOCC1	98.3
COc1ccc(OC)c2c(=S)c3ccccc3[nH]c12	90.7
CNC(=O)c1cc(Oc2ccc(NC(=O)Nc3ccc(Cl)c(C(F)(F)F)c3)cc2)ccn1	101
Nc1[nH]nc2nc3ccccc3nc12	96.6
O=C1NC(=O)C(c2cn(CCCO)c3ncccc23)=C1c1cnccn1	124
COc1ccc(CNC(=O)Nc2ncc([N+](=O)[O-])s2)cc1	96.9
Cn1c2ccccc2c2c3c(c4c5ccccc5n(CCC#N)c4c21)CNC3=O	112
Cc1ccc(NC(=O)c2ccc(CN3CCN(C)CC3)cc2)cc1Nc1nc(-c2cccnc2)cs1	95.6
Nc1ncnc2n[nH]c(Nc3ccc(F)cc3)c12	102
Cn1sc(=O)n(Cc2ccccc2)c1=O	102
O=S(=O)(c1cccc2cnccc12)N1CCCNCC1	91.6
O=C(O)c1ccc2c3c1cccc3c(=O)n1c3ccccc3nc21	103

Sample 2
SMILES: O=C(NC[C@@H]1[C@H]2CN(C(=O)OCc3cc(C(F)(F)F)cc(C(F)(F)F)c3)C[C@@H]12)c1ccc2[nH]nnc2c1
Concentration: 1 µM
target	effect on	technique	remaining binding [%]
Casein kinase I isoform alpha-like (CSNK1A1L, Homo sapiens, UniProt Q8N752)	cell-free assay	competition with immobilised ligand	86
Mitogen-activated protein kinase kinase kinase 6 (MAP3K6, Homo sapiens, UniProt O95382)	cell-free assay	competition with immobilised ligand	81
Hepatocyte growth factor receptor (MET, Homo sapiens, UniProt P08581, Y1235D)	cell-free assay	competition with immobilised ligand	76
AP2-associated protein kinase 1 (AAK1, Homo sapiens, UniProt Q2M2I8)	binding	–	96
Ribosomal protein S6 kinase alpha-4, N-terminal kinase domain (RPS6KA4, Homo sapiens, UniProt O75676)	cell-free assay	competition with immobilised ligand	100
MAP kinase-interacting serine/threonine-protein kinase 2 (MKNK2, Homo sapiens, UniProt Q9HBH9)	cell-free assay	competition with immobilised ligand	90
Myosin light chain kinase family member 4 (MYLK4, Homo sapiens, UniProt Q86YV6)	cell-free assay	competition with immobilised ligand	100
Serine/threonine-protein kinase SIK2 (SIK2, Homo sapiens, UniProt Q9H0K1)	cell-free assay	competition with immobilised ligand	100
Bone morphogenetic protein receptor type-1B (BMPR1B, Homo sapiens, UniProt O00238)	cell-free assay	competition with immobilised ligand	95
Phosphatidylinositol 4,5-bisphosphate 3-kinase catalytic subunit alpha isoform (PIK3CA, Homo sapiens, UniProt P42336, Q546K)	cell-free assay	competition with immobilised ligand	78

Sample 3
Cell line: HaCaT
Concentration: 100 µM
Time: 36 h
SMILES	viability [%]
CC(C)(C)C(=O)OCOP(=O)(COCCn1cnc2c(N)ncnc21)OCOC(=O)C(C)(C)C	19.8
Cc1c(Cl)cccc1Nc1ccccc1C(=O)O	95
Cn1c(=O)cc(N2CCC[C@@H](N)C2)n(Cc2cc(F)ccc2C#N)c1=O	98.6
Nc1nc(=O)[nH]cc1F	87.6
CN1CCCCC1CCN1c2ccccc2Sc2ccc([S+](C)[O-])cc21 (stereo not shown)	4.83
O=C1c2c(O)cccc2C([C@@H]2O[C@H](CO)[C@@H](O)[C@H](O)[C@H]2O)c2cc(CO)cc(O)c21 (stereo partly shown)	98.8
Nc1ccc(S(=O)(=O)Nc2ncccn2)cc1	60.1
O=C(O)c1ccccc1C(=O)Nc1ccc(S(=O)(=O)Nc2nccs2)cc1	96.1
Cc1cc2nc3c(=O)[nH]c(=O)nc-3n(C[C@H](O)[C@H](O)[C@H](O)COP(=O)(O)O)c2cc1C	136

Sample 4
Host: mouse
Sample: microsomes or S9
Concentration: 2 µM
Time: 0.5 h
SMILES	remaining compound [%]
CC(C)n1[nH]c(=O)c2c(-c3ccc[nH]c3=O)c3c(nc21)[nH]c(=O)n3C	89.5
O=c1cccc2n1CC1CC(C2)N(c2nc(N3CCCCC3)nc(N3CCCCC3)n2)C1 (stereo not shown)	5.89
COC(=O)Nc1ccc(-c2ccc(C)nc2N)cc1	60.7
COc1c2c(cc3c1OCO3)CCN(C)C(C(C)=O)=C2	6.08
CN(CCOC(=O)c1ccc(C(C)(C)C)cc1)C1=NS(=O)(=O)c2ccccc21	< 1
O=C(Nc1ccc2c(c1)OCO2)C1CCN(Cc2nnc(-c3ccc(Br)s3)o2)CC1	2.27
N#Cc1nnc2ccccc2c1Oc1ccc2ncccc2c1	1.19
Cc1ccc2[nH]c3nc(N/N=C/c4cc5c(cc4Cl)OCO5)nnc3c2c1	57

For quick reference, copied from above (sample 2):
target	effect on	technique	remaining binding [%]
Serine/threonine-protein kinase SIK2 (SIK2, Homo sapiens, UniProt Q9H0K1)	cell-free assay	competition with immobilised ligand	100
Bone morphogenetic protein receptor type-1B (BMPR1B, Homo sapiens, UniProt O00238)	cell-free assay	competition with immobilised ligand	95
Phosphatidylinositol 4,5-bisphosphate 3-kinase catalytic subunit alpha isoform (PIK3CA, Homo sapiens, UniProt P42336, Q546K)	cell-free assay	competition with immobilised ligand	78
